{"data": "Measurements of several laboratories", "note": "Parts stem from different laboratories: compare values within a part only."}
{"data": "Sample 1", "target": "TAR DNA-binding protein 43, full length, His tag (TARDBP, Homo sapiens, UniProt Q13148, residues 1-414)", "method": "RNA Bind-n-Seq", "molecule type": "RNA", "matrix": "in vitro", "concentration": "20 nM", "setting": "6-mer, flanks averaged, single round", "added": "150 mM LiCl", "relative to": "input library", "reading": "higher = stronger binding"}
{"Sequence": "GCCCUC", "6-mer enrichment (R)": 1.05}
{"Sequence": "CACGGC", "6-mer enrichment (R)": 0.876}
{"Sequence": "AGGACG", "6-mer enrichment (R)": 0.976}
{"Sequence": "GCAGGU", "6-mer enrichment (R)": 1.04}
{"Sequence": "GCCUAC", "6-mer enrichment (R)": 0.917}
{"Sequence": "UUACCG", "6-mer enrichment (R)": 0.893}
{"data": "Sample 2", "target": "Histone acetyltransferase KAT6A, winged helix 2, GST fusion (KAT6A, Homo sapiens, UniProt Q92794, residues 85-181)", "method": "protein binding microarray", "molecule type": "double-stranded DNA, one strand shown", "matrix": "in vitro", "concentration": "not given", "setting": "8-mer, flanks averaged, mean of 2 arrays, mostly near background", "relative to": "not given", "reading": "higher = stronger binding", "Residues (chain)": "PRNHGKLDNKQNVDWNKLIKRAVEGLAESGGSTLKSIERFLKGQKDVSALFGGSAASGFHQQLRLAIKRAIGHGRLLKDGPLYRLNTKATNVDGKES"}
{"Sequence": "CGCGGTTC", "E-score": 0.175}
{"Sequence": "CGGCAGCC", "E-score": 0.0427}
{"Sequence": "CAAATCCG", "E-score": -0.018}
{"Sequence": "GGCTAGCC", "E-score": -0.00958}
{"Sequence": "ATTACGTC", "E-score": -0.163}
{"Sequence": "GAACTAAA", "E-score": -0.0141}
{"Sequence": "AGCATGCT", "E-score": -0.145}
{"data": "Sample 3", "target": "Interferon regulatory factor 3, full length, phosphomimetic (IRF3, Homo sapiens, UniProt Q14653, residues 1-427, S386D/S396D/S398D/S402D/T404D/S405D)", "method": "protein-binding microarray", "molecule type": "double-stranded DNA, one strand shown", "matrix": "in vitro", "concentration": "2540 nM top", "setting": "60-bp whole probe", "added": "salmon DNA 0.4 mg/ml", "relative to": "random background probes", "reading": "higher = stronger binding", "shared flanks, not repeated": "GCCTAGCAC … GTCTTGATTCGCTTGACGCTGCTG", "Construct (chain)": "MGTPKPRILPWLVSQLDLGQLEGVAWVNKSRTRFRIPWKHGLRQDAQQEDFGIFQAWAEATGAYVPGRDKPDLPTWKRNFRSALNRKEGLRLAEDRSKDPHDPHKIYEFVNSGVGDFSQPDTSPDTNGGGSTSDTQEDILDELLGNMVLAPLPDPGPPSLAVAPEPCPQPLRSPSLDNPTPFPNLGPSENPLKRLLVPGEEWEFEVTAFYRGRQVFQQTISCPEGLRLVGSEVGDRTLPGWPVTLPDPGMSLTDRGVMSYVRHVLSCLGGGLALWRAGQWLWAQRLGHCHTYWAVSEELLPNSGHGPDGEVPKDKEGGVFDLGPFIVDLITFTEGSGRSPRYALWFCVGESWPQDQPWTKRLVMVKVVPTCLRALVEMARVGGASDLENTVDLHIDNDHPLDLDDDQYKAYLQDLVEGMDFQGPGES"}
{"Sequence": "TTAGGTTTCCCTTCCCTTTAGTGCTAG", "fitted relative affinity": "9.19 z-score"}
{"Sequence": "GACGGCTTCGGGTATCGGGACGTGCTA", "fitted relative affinity": "-0.449 z-score"}
{"Sequence": "TTAGAACTGGGGAATCGATTAGTGCTA", "fitted relative affinity": "-0.566 z-score"}
{"Sequence": "GACGGTTGCGGGTATCGGGACGTGCTA", "fitted relative affinity": "1.37 z-score"}
{"Sequence": "GACGATTACAGTCTCGAGACGTGCTAG", "fitted relative affinity": "0.482 z-score"}
{"data": "Single results of other studies"}
{"Substance": "PhoQ, residues 284 288 289 292 302 303 TYGVAM", "target": "PhoP, residues 12 14 15 18 19 SEGLL (Escherichia coli, UniProt P23836)", "assay": "Sort-seq, measured: YFP reporter", "system": "E. coli", "conditions": "PhoQ-PhoP variant library, added: 10 µM Mg2+", "how to read": "relative to: high Mg2+ state, higher = stronger signaling", "quantity": "fold induction", "value": 12.7}
